Assay results gathered from unrelated publications.
Protocols differ between the studies behind these lines. Numbers after ± are the reported error. Ends that are not written are not given here.
FGFR3 isoform IIIc: FGFR3 isoform IIIc (unknown, UniProt Q61851)
B1: mel-26 (Caenorhabditis elegans, UniProt Q94420); sequence looked up; chain MEPRIDGGVFIGGIGNSGNEMCSNGVPALGVSSQTEIKVEKVQHTWTVKNFSHCYQEYLENFVYLQRGDEQLTWSIKIYPKGNGENNKDFVFLCLNRVINNNVKAGKIGFKSQFKLRTAENKDIEMRIHPNPSHSDYVSYIKRDVLFPQIMPRDMIIVNVEIDVAVETITTTNEPIQFEPTNSEQQLIEDYQRLFSQELLCDFAINVNGKIIRAHKAVLAARSPVFNAMLTHQDTDEAKSSMMYINDMDYDVIYEMVYYIYCGRCNKDITDMATALLIAADKYRLEELKSHCEKYLVENINIENACSLLIIGDLYSAPKLRKRAVTYILARPKNVTGTPGWEDILKGHPNLITDIFSQIDRQSSTGATSSVSNLPGVPMDIPGITGNIVPPPSGL
B2: UGT1A9 (Homo sapiens, UniProt O60656); chain GKLLVVPMDGSHWFTMRSVVEKLILRGHEVVVVMPEVSWQLGRSLNCTVKTYSTSYTLEDLDREFKAFAHAQWKAQVRSIYSLLMGSYNDIFDLFFSNCRSLFKDKKLVEYLKESSFDAVFLDPFDNCGLIVAKYFSLPSVVFARGILCHYLEEGAQCPAPLSYVPRILLGFSDAMTFKERVRNHIMHLEEHLLCHRFFKNALEIASEILQTPVTEYDLYSHTSIWLLRTDFVLDYPKPVMPNMIFIGGINCHQGKPLPMEFEAYINASGEHGIVVFSLGSMVSEIPEKKAMAIADALGKIPQTVLWRYTGTRPSNLANNTILVKWLPQNDLLGHPMTRAFITHAGSHGVYESICNGVPMVMMPLFGDQMDNAKRMETKGAGVTLNVLEMTSEDLENALKAVINDKSYKENIMRLSSLHKDRPVEPLDLAVFWVEFVMRHKGAPHLRPAAHDLTWYQYHSLDVIGFLLAVVLTVAFITFKCCAYGYRKCLGKKGRVKKAHKSKTH
B3: Syt1 (Mus musculus, UniProt P46096); chain MVSASRPEALAAPVTTVATLVPHNATEPASPGEGKEDAFSKLKQKFMNELHKIPLPPWALIAIAIVAVLLVVTCCFCVCKKCLFKKKNKKKGKEKGGKNAINMKDVKDLGKTMKDQALKDDDAETGLTDGEEKEEPKEEEKLGKLQYSLDYDFQNNQLLVGIIQAAELPALDMGGTSDPYVKVFLLPDKKKKFETKVHRKTLNPVFNEQFTFKVPYSELGGKTLVMAVYDFDRFSKHDIIGEFKVPMNTVDFGHVTEEWRDLQSAEKEEQEKLGDICFSLRYVPTAGKLTVVILEAKNLKKMDVGGLSDPYVKIHLMQNGKRLKKKKTTIKKNTLNPYYNESFSFEVPFEQIQKVQVVVTVLDYDKIGKNDAIGKVFVGYNSTGAELRHWSDMLANPRRPIAQWHTLQVEEEVDAMLAVKK

fabF F132A (Escherichia coli)  condensation rate (acpP C12-acylated 1-78, C12 acyl on 4'-phosphopantetheine (Escherichia coli, UniProt P0A6A8); holo-AcpP formation, HPLC; 10 µM, added: malonyl-CoA): 2.72 min⁻¹
B1 (mel-26)  binding (mei-1/mei-2, phosphorylated by MBK-2 (Caenorhabditis elegans); dot blot; 4 °C, native): binds
MMP2 fragment F297A (Homo sapiens)  hydrolysis rate (COL1A1/COL1A2 denatured, gelatin (Homo sapiens); DQ-gelatin fluorescence; 10 nM, 25 °C; higher = faster hydrolysis): 0.213 RFU/s
KWDTANNPLYKEATSTFTNITYRGT (ITGB3 764-788 (Homo sapiens, UniProt P05106); sequence looked up)  molecule per partner (Myom1 IgC2 domain 4 (Mus musculus); ITC; peptide; pH 6.8, 25 °C, NaCl 50 mM): 0.99 ± 0.1
TIMP2 N-terminal domain S4P/V6G/I35V/S68N/V71I/T99N  Ki (MMP2 (Homo sapiens, UniProt P08253); fluorogenic substrate cleavage, inhibitor, enzyme inhibition assay; apparent): 38.9 nM
B2 (UGT1A9)  Vmax/Km (COc1ccc2oc(-c3ccccc3)c(O)c(=O)c2c1; steady-state kinetics; pH 7.4, 37 °C): 73000 µL/min/mg
F8 A2 domain (human)  decay rate (F8 A1 and A3C1C2 dimer, factor VIIIa Y1792T; FXa generation activity loss; 1.5 nM, 23 °C; higher = faster decay): 1.06 min⁻¹
plasminogen (UniProt P20918)  p-ERK (Plgrkt (Mus musculus, UniProt Q9D3P8); immunoblot; satellite cells; 15 min, added: plasminogen 5 µg/mL; baseline: total ERK, higher = more phosphorylation): 2 fold
KCNTATCATQRLANFLVHSSNNFGPILPPTNVGSNTY (Pramlintide; not fully specified (C-terminus, bridges); cysteine pairing not given here; sequence looked up)  adverse event incidence (refers to: Constipation; peptide, obese or overweight humans; concentration not given, ITT population): 0%
SIIVFEKL  IFN-gamma+ cells (OT-I CD8+ T cells; peptide; concentration not given, primed 5 d, OVA257 100 ng/mL restimulation, added: 20 ng/mL TGF-beta1 from day 2): 30.4%
[D-Pro7]angiotensin-(1-7)  maximal vasorelaxation (antagonist; male Wistar rat, isolated renal artery; 10 µM, 20 min, added: angiotensin-(1-7), phenylephrine 3 × 100 nM): 12 ± 1%
FGF1 (Homo sapiens, UniProt P05230)  cell proliferation (FGFR3 isoform IIIc; cell proliferation, MTT; BaF3-FGFR3c; 20 nM, 48 h, added: heparan sulfate 4.9 µg/mL; baseline: FGF 1 with heparin, higher = more proliferation): 47%
MEAVKKATATTTWMVPTAQ (L3MBTL3 52-70 N54A (Homo sapiens, UniProt Q96JM7-2); sequence looked up)  ΔH (Rbpj 53-474 (Mus musculus, UniProt P31266); ITC; peptide; pH 6.5, 25 °C, NaCl 150 mM): -11.1 kcal/mol
ARSPLLPVSVPTAPEVSEESHKPTEDSANVYEQDDLSEQMASLEGLMKQLNAITGSAF (DCC 1390-1447 (Homo sapiens, UniProt P43146); sequence looked up)  molecule per partner (MYO10 MyTH4-FERM 1486-2058 del1872-1891 (Homo sapiens, UniProt Q9HD67); SEC and AUC; peptide): 1
B3 (Syt1)  FRET efficiency change (Psen1 (Mus musculus, UniProt P49769); FLIM FRET; old mouse primary neurons; 15 min, added: KCl 50 mM; baseline: no KCl, higher = more FRET): 1.5 fold
SIYNFEKL  IFN-gamma+ cells (OT-I CD8+ T cells; peptide; concentration not given, primed 5 d, OVA257 100 ng/mL restimulation, added: no TGF-beta1): 50.2%
FGF8 (Homo sapiens, UniProt P55075)  cell proliferation (FGFR3 isoform IIIc; cell proliferation, MTT; BaF3-FGFR3c; 20 nM, 48 h, added: heparosan 4.9 µg/mL; baseline: FGF 1 with heparin, higher = more proliferation): 37%
benzalkonium chloride  concentration for maximal antagonism (Saccharomyces cerevisiae; vacuole-vacuole fusion, antagonist; added: mastoparan 20 µM): 10 µg/mL

Repeated from above:
KCNTATCATQRLANFLVHSSNNFGPILPPTNVGSNTY (Pramlintide; not fully specified (C-terminus, bridges); cysteine pairing not given here; sequence looked up)  adverse event incidence (refers to: Constipation; peptide, obese or overweight humans; concentration not given, ITT population): 0%
